Experimental data gathered from unrelated publications.
Each line is one published result; not all experiments were run side by side. Several values in a cell are separate wells, animals, samples, runs or records. ± gives the spread as reported.

SMILES	test	test system	conditions	how to read	quantity	result
Cc1nc(Nc2ccc(CC(=O)O)cc2)nc(Nc2ccc(F)c(C(F)(F)F)c2)c1C	–	mice, chronic ethanol plus binge	intraperitoneal, 0.3 mg/kg daily, ethanol diet 4 weeks, dosed last two	baseline: vehicle	liver to body weight ratio	no effect
CCCCCN1C[C@H](O)[C@@H](O)[C@H](O)[C@@H]1CO	–	Hexb-/- mouse	30 mg/kg/day	baseline: untreated	median survival increase	15%
O=C(O)/C=C/C(=O)O.Oc1cccc2[nH]cc(CCNCc3ccccc3)c12	–	C57BL/6J mice	subcutaneous, 10 mg/kg	–	head twitch count	25 ± 1.9
N.N.[Cl][Pt][Cl]	–	SAS xenograft, KSN/Slc nude mice	dose not given, day 8, group mean	–	tumour volume	208 mm3
CC(=O)c1c(C)c2cnc(Nc3ccc(C4CCN(CCS(C)(=O)=O)CC4)cn3)nc2n(C2CCCC2)c1=O	RECIST v1.1	HR+/HER2- advanced breast cancer patients	100 mg twice daily, phase Ib monotherapy arm	–	objective response rate	6.7%
c1ccc2c(c1)Nc1ccccc1S2	–	CT26 tumour-bearing mice	intraperitoneal, 100 mg/kg equivalents daily, day 8	–	tumour volume	1000 mm³
C=CC(=O)N[C@H]1C=C(C)c2c(-c3cnc4ccccc4c3)c3c(N)ncnc3n2C1	–	NCI-H2073 EGFR SVD knock-in xenograft, BALB/c nude mice	50 mg/kg once daily, 21 days	–	tumour growth inhibition	45%
CN1CCN(S(=O)(=O)c2cc([N+](=O)[O-])ccc2N(CCOS(C)(=O)=O)CCOS(C)(=O)=O)CC1	–	NSG mice, sample DA PDX	intraperitoneal, 25 mg/kg weekly x3	baseline: treated over vehicle	EFS ratio (T/C)	> 55.4
C=CC(=O)Nc1cc(Nc2ncc(Cl)c(Nc3ccccc3C(=O)C(=O)N(C)C)n2)c(OC)cc1N1CCN(C)CC1	RECIST v1.1 best response	human EGFR T790M NSCLC	oral, 200 mg/day, per-protocol set	–	patients with partial response	33.3%
[131I-].[Na+]	ATA response criteria	human, papillary thyroid cancer with metastases	3700 MBq	–	excellent response	50.3%
O=C(O)CNC(=O)c1cc2ccccc2n1Cc1ccc(Br)c2ccccc12	–	mouse, acute hyperuricaemia model, serum	oral, 2 mg/kg, individual animal data	–	serum uric acid	850 µM and 706 µM and 602 µM
Cc1cn(-c2cc(NC(=O)c3ccc(C)c(Nc4nccc(-c5cccnc5)n4)c3)cc(C(F)(F)F)c2)cn1	–	human patients	dose not given, 12 to 6 months, unit not given	baseline: placebo	ADAS-Cog maze time change	-3.78
C[C@H]1O[C@@H](O[C@H]2CC[C@@]3(C)[C@@H](CC[C@]4(C)[C@@H]3C=C[C@]35OC[C@@]6(CCC(C)(C)C[C@H]63)[C@@H](O)C[C@]54C)[C@]2(C)CO)[C@H](O)[C@@H](O[C@@H]2O[C@H](CO)[C@@H](O)[C@H](O)[C@H]2O)[C@H]1O	–	mouse, no ethanol, hepatic SIRT1 knockdown, liver	dose not given, high dose	–	hepatic total cholesterol	0.15 mmol/g protein and 0.0669 mmol/g protein and 0.145 mmol/g protein and 0.0795 mmol/g protein and 0.0712 mmol/g protein
C[C@]12CC[C@@H](O)C[C@@H]1CC[C@@H]1[C@@H]2CC[C@]2(C)[C@@H]([N+](=O)[O-])CC[C@@H]12	protection against pentylenetetrazol seizures	male NIH Swiss mice	intraperitoneal, 15 min before test, with: pentylenetetrazol 80 mg/kg s.c.	–	ED50	12.9 mg/kg
C[C@H]1N=C(c2ccccc2F)c2cc(Br)ccc2-n2cnc(C(=O)O)c21	–	guinea pig tracheal rings	with: substance P contraction	–	relaxation time	≤ 30 min
Cc1c(C(=O)O)ccc2c3n(nc12)[C@@H]1[C@H](C3)N(CC2CC2)[C@@]2(C(=O)Nc3cc(Cl)ccc32)[C@H]1c1cccc(Cl)c1F	–	DKO mouse, sample A orthotopic PDX	2 mg/kg weekly, 2 doses	–	median survival	61 days
CCCCC1(CCCC)CN(c2ccccc2)c2cc(SC)c(OCC(=O)N[C@@H](C(=O)NCC(=O)O)c3ccccc3)cc2S(=O)(=O)C1	refers to: HDL cholesterol	human, serum	5 mg once daily, day 11	–	serum HDL-C	46 mg/dL
CC(=O)c1c(C)c2cnc(Nc3ccc(N4CCNCC4)cn3)nc2n(C2CCCC2)c1=O	–	G-Smo mice, SHH medulloblastoma	10 mg/kg, daily P10-14 then alternate days	–	median survival	16.5 days
Cc1cccc(C)c1NC(=O)C1CCCCN1 (centres unmarked)	hot plate	Sprague-Dawley rat, male, sciatic nerve	22.5 mM	–	sensory maximum possible effect	100%
CC[C@H](C)[C@@H]1NC(=O)[C@@H]2CCCN2C(=O)[C@H](CC(C)C)NC(=O)[C@H](CC(C)C)NC(=O)CNC(=O)[C@@H](NC(=O)[C@@H](NC(=O)[C@H](CC(=O)O)NC(=O)CNC(=O)[C@@H](NC(=O)[C@H](C)NC(=O)CNC(=O)[C@H](CCCCN)NC(=O)[C@H](CC(C)C)NC(=O)[C@H](CC(C)C)NC(=O)[C@H](CCCCN)NC(=O)CNC(=O)[C@@H](NC(=O)[C@@H](N)CC(C)C)C(C)C)C(C)C)C(C)C)CSSC[C@@H](C(=O)O)NC1=O	RNA-seq, refers to: Il11	mouse, traumatic brain injury model, frontal cortex and hippocampus	dose not given	baseline: TBI alone	log2 fold change	-2.78

For quick reference, copied from above:
SMILES	test	test system	conditions	how to read	quantity	result
CN1CCN(S(=O)(=O)c2cc([N+](=O)[O-])ccc2N(CCOS(C)(=O)=O)CCOS(C)(=O)=O)CC1	–	NSG mice, sample DA PDX	intraperitoneal, 25 mg/kg weekly x3	baseline: treated over vehicle	EFS ratio (T/C)	> 55.4
C[C@]12CC[C@@H](O)C[C@@H]1CC[C@@H]1[C@@H]2CC[C@]2(C)[C@@H]([N+](=O)[O-])CC[C@@H]12	protection against pentylenetetrazol seizures	male NIH Swiss mice	intraperitoneal, 15 min before test, with: pentylenetetrazol 80 mg/kg s.c.	–	ED50	12.9 mg/kg
CCCCC1(CCCC)CN(c2ccccc2)c2cc(SC)c(OCC(=O)N[C@@H](C(=O)NCC(=O)O)c3ccccc3)cc2S(=O)(=O)C1	refers to: HDL cholesterol	human, serum	5 mg once daily, day 11	–	serum HDL-C	46 mg/dL
